Published values collected from several papers.
Protocols differ between the studies behind these lines. Values joined by “and” are separate records of one study, mostly repeats; a detail may differ. ± gives the spread as reported.
Target: Serine/threonine-protein kinase PLK1 (PLK1, Homo sapiens, UniProt P53350)

Structure (SMILES)	assay	conditions	how to read	endpoint	value
NC(=O)C[C@H]1CCc2sc3ncnc(O[C@H]4CC[C@H](N5CCOCC5)CC4)c3c21	enzyme activity, inhibitor	10 µM	–	inhibition	3%
C=CC(=O)Nc1cccc(-c2cnc3[nH]cc(C(=O)NC(C)(C)C)c3n2)c1	enzyme activity, inhibitor	0.1 µM	–	inhibition	4%
CN1CCN(Cc2ccc(-c3ccc(CO[C@H]4CCC[C@@H]4NC(=O)c4cc(-c5cnn(C)c5)cnc4N)cc3)cc2)CC1	enzyme activity, inhibitor	0.1 µM	–	inhibition	0%
Nc1ncc2c(n1)-c1c([nH]c3ccc(C4=CCOCC4)cc13)CCC2	binding, competition with immobilised ligand	1 µM	–	remaining binding	100%
Cc1ccc(-c2c(/C=C(\C#N)C(=O)NC(C)C)n(CCCO)c3ncnc(N)c23)cc1	cell-free assay, competition with immobilised ligand	1 µM	–	remaining binding	85%
COc1ccc(O)cc1-c1c[nH]c2ncc(-c3cncc(C(=O)N(C)C)c3)cc12	binding, competition with immobilised ligand	0.2 µM	–	inhibition	-8.12%
Nc1ncc(-c2cc(-c3cnn(CC(F)(F)F)c3)ncc2F)nc1C(=O)NC1CNCC(F)C1 (stereo not shown)	enzyme activity, inhibitor	1 µM	–	remaining activity	96%
Cc1cccc(O[C@H]2CCC[C@@H](C(C)CNCc3ccncc3)C2)c1 (relative stereo)	enzyme activity, inhibitor	10 µM	–	inhibition	-4%
Cc1nc2c(F)cc(-c3nc(Nc4ccc(CNC(=O)CCCCCCC(=O)NO)cc4)ncc3F)cc2n1C(C)C	enzyme activity, inhibitor	1 µM	–	inhibition	70%
Cc1cccc(-c2ccc3nc(NC(=O)C4CCCCC4)nn3c2)c1	enzyme activity, Dundee kinase panel	10 µM	–	remaining activity	81%
O=C(Nc1ccc(Oc2ncnc3[nH]cc(-c4ccccc4)c23)c(F)c1)c1c2n(n(-c3cc(F)ccc3F)c1=O)CCCC2	enzyme activity, inhibitor	0.5 µM	–	inhibition	15%
COc1c(Cl)cccc1Nc1c(-c2ccncc2C#C[C@@]2(C)CCCN2C(=O)/C=C/CN(C)C)[nH]c2c1C(=O)NCC2	binding, competition with immobilised ligand	3 µM	–	remaining binding	69%
C=CC(=O)N1CCCC(n2c(=O)c3ncccc3n(Cc3ccc(Oc4ccccc4)cc3)c2=O)C1 (stereo not shown)	cell-free assay, competition with immobilised ligand	1 µM	–	remaining binding	73%
COc1cc(Nc2nccc(-c3cnn4nc(OC)ccc34)n2)cc(C(F)(F)F)c1	binding, competition with immobilised ligand	1 µM	–	remaining binding	90%
COCC12C(=O)NC3C4(C(OC)CC1O)C1CC5(O)C(OC)C(O)C(OC(C)=O)(C1C5OC(=O)c1ccccc1)C3(O)C(OC)C24 (stereo not shown)	kinase activity, inhibitor, ProQinase kinase profiling	25 µM	reference: control	remaining activity	105% and 109%
COc1cc(-n2cc3cc(F)cc(C(N)=O)c3n2)cc(Cl)c1C1CC(O)(CCO)Cc2ccccc21 (stereo not shown)	enzyme activity, inhibitor	10 µM	–	inhibition	0.49%
CN1CCN(Cc2ccc(NC(=O)c3cccc(C#Cc4cnc(N)c5ncccc45)c3)cc2C(F)(F)F)CC1	cell-free assay, competition with immobilised ligand	0.5 µM	–	remaining binding	83%
COc1ccc(NC(=O)Nc2ccc3c(c2)C(=O)N(C(C)CO)CC(C)C(CN(C)Cc2ccc4c(c2)OCO4)O3)cc1 (stereo not shown)	binding, competition with immobilised ligand	10 µM	–	remaining binding	39%
Cc1cnc2nc1Nc1cccc(c1)COC/C=C/COCc1cc(ccc1OCCN1CCOCC1)N2	binding	0.1 µM	–	remaining binding	100%
Cc1cccc(-c2ccc3nc(NC(=O)C4CCOCC4)nn3c2)c1	enzyme activity, Dundee kinase panel	10 µM	–	remaining activity	83%
CC(C)=CC1OC(C)(C)C2C=C3C(=O)C(Cl)=CC(O)C3C3C(O)C4OC4C(=O)C132 (stereo not shown)	cell-free assay, competition with immobilised ligand	10 µM	–	remaining binding	75%
CNC1C[S+]2CC[S+]3CC[S+](C1)[Ru-4]321([N]=C=S)[n]2c3ccc(OC)cc3c3c4c(c5cc(F)c[n+]1c5c32)C(=O)NC4=O (stereo not shown)	KinomeScan	0.1 µM	reference: untreated	remaining binding	96%
CNC(=O)C[C@H](Cc1ccc(C#N)cc1)NC(=O)c1cc(-c2ccc(CN[C@H](C)c3ccc(C)cc3)o2)ccc1Cl	enzyme activity, inhibitor	1 µM	–	activity vs control	92%
C[C@H]1CN(C(=O)c2cn(-c3ccnc(N)n3)c3cc(C#CC4(O)CCCCC4)ccc23)CCN1	enzyme activity, inhibitor, FRET	1 µM	–	inhibition	0%
CC[C@H](C)[C@H](NC(C)=O)C(=O)N[C@@H](CC(=O)O)C(=O)N1CCC[C@H]1C(=O)N1CCC[C@H]1C(=O)N[C@@H](CC(C)C)C(=O)N[C@@H](Cc1c[nH]cn1)C(=O)N[C@@H](CO)C(=O)N[C@H](C(=O)N[C@@H](C)C(N)=O)[C@@H](C)OP(=O)(O)O	polo-box domain binding, isothermal titration calorimetry	concentration not given, 25 °C	–	binding enthalpy	-14.5 ± 0.09 kcal/mol

A few entries again:
Structure (SMILES)	assay	conditions	how to read	endpoint	value
CC[C@H](C)[C@H](NC(C)=O)C(=O)N[C@@H](CC(=O)O)C(=O)N1CCC[C@H]1C(=O)N1CCC[C@H]1C(=O)N[C@@H](CC(C)C)C(=O)N[C@@H](Cc1c[nH]cn1)C(=O)N[C@@H](CO)C(=O)N[C@H](C(=O)N[C@@H](C)C(N)=O)[C@@H](C)OP(=O)(O)O	polo-box domain binding, isothermal titration calorimetry	concentration not given, 25 °C	–	binding enthalpy	-14.5 ± 0.09 kcal/mol
COc1ccc(NC(=O)Nc2ccc3c(c2)C(=O)N(C(C)CO)CC(C)C(CN(C)Cc2ccc4c(c2)OCO4)O3)cc1 (stereo not shown)	binding, competition with immobilised ligand	10 µM	–	remaining binding	39%
C=CC(=O)Nc1cccc(-c2cnc3[nH]cc(C(=O)NC(C)(C)C)c3n2)c1	enzyme activity, inhibitor	0.1 µM	–	inhibition	4%
COc1cc(-n2cc3cc(F)cc(C(N)=O)c3n2)cc(Cl)c1C1CC(O)(CCO)Cc2ccccc21 (stereo not shown)	enzyme activity, inhibitor	10 µM	–	inhibition	0.49%
